Assay results from different studies.
Each numbered part is a random draw from the data of one study; scales do not carry over between parts. Substitutions count along the parent as printed.

Block 1
Target: Histone acetyltransferase KAT6A, winged helix 2, GST fusion (KAT6A, Homo sapiens, UniProt Q92794, residues 85-181)
Technique: protein binding microarray
Molecule type: double-stranded DNA, one strand shown
Matrix: in vitro
Tested at: not given
Setting: 8-mer, flanks averaged, mean of 2 arrays, mostly near background
Reference: not given
Reading: higher = stronger binding
Residues (chain): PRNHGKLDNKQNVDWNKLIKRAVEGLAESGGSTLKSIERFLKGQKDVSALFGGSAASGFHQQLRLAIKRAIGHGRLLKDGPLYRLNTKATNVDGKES
Strand	E-score
CTCCACAA	0.117
ATACTCGG	0.0308
CAGATCTC	-0.0929
ACATGCCT	-0.0948
AGTAAATC	0.0685
TAACACCA	-0.0264
AAAAATTA	0.174
AAAGCTCA	-0.0399
AACCCTCT	-0.123

Block 2
Target: RING finger protein unkempt homolog, zinc fingers 1-6, GST-SBP tag (UNK, Homo sapiens, UniProt Q9C0B0, residues 30-357)
Technique: RNA Bind-n-Seq
Molecule type: RNA
Matrix: in vitro
Tested at: not given
Setting: RNA with constant flanks, human-mouse chimeric sites, ends assumed
Reference: input RNA pool
Reading: higher = stronger binding
Constant ends, left off below: GGGAGUUCUACAGUCCGACGAUC … CAACAGAGGAUUGAGCAUCA
Residues (chain): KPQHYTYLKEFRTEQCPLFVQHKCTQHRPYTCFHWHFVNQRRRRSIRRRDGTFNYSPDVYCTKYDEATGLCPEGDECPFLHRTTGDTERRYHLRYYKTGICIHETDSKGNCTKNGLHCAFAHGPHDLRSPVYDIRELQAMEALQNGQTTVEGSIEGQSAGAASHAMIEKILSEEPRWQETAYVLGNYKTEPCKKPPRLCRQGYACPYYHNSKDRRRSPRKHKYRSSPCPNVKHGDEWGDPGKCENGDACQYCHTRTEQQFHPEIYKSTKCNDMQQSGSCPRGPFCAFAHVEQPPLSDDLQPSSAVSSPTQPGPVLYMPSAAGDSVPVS
Strand	bound/input enrichment
UCUUAACUUAUUCAUUUAACUUAUUUUUAUAGCUAGAGCAAUAUUGUUAGUCUUAGAGAGUAGUUCACAUUUUUUGAGAAGCAUGCCCUCCCUGUCCAUUUGUCUUAUAACAUGACCCAG	20.7 ratio
UAAGUCCUGUGCCAGCACUUCGCUCAUAAAGUUUUAAAUUCUGGACCAAUAGUGUUUGUUUCCUGAUUUUUGUAUUCAAUACUUUGCCUAGUAUGUAACUCACUCUUCUGGAUAAAUAAA	1.37 ratio
UCAACAGACAACAUCAAAUACCAGCCUAAAGGGGGGCAGGUACAAAUUGUUACUAAGAAAAUAGACCUAAGCCAUGUGACAUCCAAAUGUGGCUCUCUGAAGAACAUCCGCCACAGGCCA	0.677 ratio
GAUCAUGAACCACCAUCAGAAAUGAAGAUGAGAUUACCCAGACGAGCCAAAACAGCUGCGCUACAGAAAAGUAAACUUAACCUUGCACCAAUUUCUCAUGAAGAUACAAGUUAAGAGAGC	0.348 ratio
CAGGGCAUCAUCUCUCGUGCUGUUAGACACCUGUUCAAGAGUAUUGAUGAGAAAAAGCACAUAGCAAUUAAAAACGGGCUGCCCCCUCCUGAAUUCAAAGUGAAUGCCCAAUUCUUAGAG	2.33 ratio
CGCUUGGAUGAGGCGGGUGUCACAGAUGAAGUGCUAGAUUCUGCCAUGCAAGCCUUCCUUCUGGAGGUUAUCGUUAAACAUGGGGAGCCGGCACCUUAUUUAUGUAACAAAGAUCCGUUU	0.11 ratio
AAAGGCAAAAAGGGCAGCUGUGUCAUUUCAUAAGUAACUCUGGGGGAGGGAAAUUCUGUUCUUUUGUUUAAUUUUCCCCCAAAUGAAGCCAAAGUGUGUGUUGAAGAACUGAGAAAAAAU	0.179 ratio
AGUGUGCAGGAAUUCAUGACCUUUACAAGUCAACUGAUUGUGGAACGCUCGGGGAAAGGCACUAGAGCUUCUGUCAAAGAACAAGAGUAUCUUUGCCAUGUCUACGUCCGGAGCGACAGU	0.0976 ratio
ACACAAUAUGAGACCAACAGCAUGGACUUCAAAGUUGGGGCAGAUGGGACAGUCUUCGCCACCCGGGAGUUGAAGAUCCCCUCCGAGCAGGUGGCGUUCACGGUGACUGCGCGGGAAAGC	0.175 ratio

Block 3
Target: ABI1, truncated, D143A, DHFR fusion (Arabidopsis thaliana)
Technique: DHFR PCA, deep sequencing
Matrix: yeast
Setting: methotrexate growth selection, single substitutions
Added: (+)-ABA 2500 µM
Reference: wild-type fitted maximum
Reading: higher = stronger binding
Parent: PYL1, truncated, DHFR fusion (Arabidopsis thaliana); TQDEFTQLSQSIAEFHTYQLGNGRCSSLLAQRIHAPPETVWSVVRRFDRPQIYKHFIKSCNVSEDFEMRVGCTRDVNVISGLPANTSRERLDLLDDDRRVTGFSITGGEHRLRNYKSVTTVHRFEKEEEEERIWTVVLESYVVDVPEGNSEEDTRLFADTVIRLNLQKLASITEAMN
Change	relative binding score [%]
F103K	-10.2
F157Q	32.4
S11L	89.6
E125V	105
R32P	83.3
M68R	90

Other studies, line by line
Substance	target	test	system	setting	how to read	quantity	result
PhoQ, residues 284 288 289 292 302 303 AEGLLW	PhoP, residues 12 14 15 18 19 LYFRQ (Escherichia coli, UniProt P23836)	Sort-seq, item: YFP reporter	E. coli	PhoQ-PhoP variant library, added: 10 µM Mg2+	reference: high Mg2+ state, higher = stronger signaling	fold induction	12.4

A few entries again (block 3):
Change	relative binding score [%]
F157Q	32.4
E125V	105
S11L	89.6
M68R	90
